# Experimental data from different studies.
# Each numbered part is a random draw from the data of one study; scales do not carry over between parts. Changes are numbered by the printed parent chain.

# Sample 1
# Target: CCND1, cyclin fold, Cln2 fusion (human)
# Technique: yeast growth competition, sequencing
# Matrix: yeast
# Setting: strong parent motif
# Baseline: not given
# Reading: higher = stronger binding
# Parent: viral docking peptide; YKVKRRLVFGADD; partner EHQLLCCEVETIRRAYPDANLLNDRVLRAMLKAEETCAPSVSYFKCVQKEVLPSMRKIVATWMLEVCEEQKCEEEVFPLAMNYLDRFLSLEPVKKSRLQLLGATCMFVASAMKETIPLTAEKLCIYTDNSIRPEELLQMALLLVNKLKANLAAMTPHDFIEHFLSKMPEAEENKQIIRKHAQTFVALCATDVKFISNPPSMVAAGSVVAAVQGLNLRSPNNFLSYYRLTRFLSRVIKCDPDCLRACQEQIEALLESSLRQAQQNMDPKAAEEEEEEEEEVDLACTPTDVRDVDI
Substitution,normalised enrichment score
YKVKRRLVEGADD [F9E],-0.109
YKVKRRLVFGMDD [A11M],1.9
YKVKRTLVFGADD [R6T],0.367
YRVKRRLVFGADD [K2R],2.16
YKVKRALVFGADD [R6A],1.07
YKVKIRLVFGADD [R5I],0.195
YKVKRRLFFGADD [V8F],1.72
YKVKARAVFGADD [R5A L7A],0.255
YKVKRRLVFGARD [D12R],0.186
YKVKHRLVFGADD [R5H],0.0596
YKVKRRLMFGADD [V8M],1.33
YKVKKRLVFGADD [R5K],0.759
YKVKQRLVFGADD [R5Q],0.697
YKNKRRLVFGADD [V3N],0.39
YKWKRRLVFGADD [V3W],-0.0921
YKVKRRLVFGDDD [A11D],3.95
YKVKWRLVFGADD [R5W],0.595
YKVKRRLVCGADD [F9C],0.199
YKVKRRLKFGADD [V8K],1.11
YKVKRRLWFGADD [V8W],1.04
YKVKSRLVFGADD [R5S],0.0515
YKTKRRLVFGADD [V3T],1.65
YKVKRRLVGGADD [F9G],0.124
YKVKRRLVFGAAD [D12A],1.18
YKVKRRLVFCADD [G10C],1.31

# Sample 2
# Target: CEP164, C-terminal peptide (human)
# Technique: DHFR complementation, deep sequencing
# Matrix: yeast
# Setting: single substitutions, model-inferred values
# Baseline: wild type
# Reading: higher = weaker binding
# Parent: PDZK1, PDZ domain 2 (human); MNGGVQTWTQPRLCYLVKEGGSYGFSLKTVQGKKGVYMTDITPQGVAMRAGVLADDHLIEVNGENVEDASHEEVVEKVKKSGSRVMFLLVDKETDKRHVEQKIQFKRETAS; partner HNRVKVYRF
Substitution,binding free energy change
L16P,1.15 kcal/mol
V46P,0.132 kcal/mol
V75Y,1.43 kcal/mol
C14E,1.54 kcal/mol
T39D,-0.00519 kcal/mol
Q101R,-0.113 kcal/mol
D95W,-0.361 kcal/mol
Q101C,-0.0507 kcal/mol

# Sample 3
# Target: Prothrombin, mature alpha-thrombin (F2, Homo sapiens, UniProt P00734)
# Technique: aptamer microarray, sandwich
# Form: DNA with 2'F-ANA
# Matrix: in vitro
# Tested at: 200 nM
# Setting: whole 15-mer aptamer, many near background
# Added: Cy3 exosite-II aptamer, 400 nM
# Reading: higher = stronger binding
# Strand: GGTTGGTGTGGTTGG
Modification,mean fluorescence intensity [a.u.]
2'F-ANA at 1 2 3 4 5 6 7 9 13,52.1
2'F-ANA at 1 2 3 5 8 12 13 15,100
2'F-ANA at 2 3 4 8 9 10 11 13 14,165
2'F-ANA at 1 3 4 7 8 10 13,56.6
2'F-ANA at 3 4 5 8 14 15,54.7
2'F-ANA at 3 5 6 8 13 14,54.7
2'F-ANA at 2 7 8,596
2'F-ANA at 1 2 8 13,155

# Sample 4
# Target: UDP-N-acetylglucosamine--peptide N-acetylglucosaminyltransferase 110 kDa subunit (OGT, Homo sapiens, UniProt O15294)
# Effect on: binding
# Technique: phage display NGS
# Form: peptide
# Tested at: concentration not given
# Setting: normalized abundance
# Baseline: input library
# Residues (O15294 1-1046): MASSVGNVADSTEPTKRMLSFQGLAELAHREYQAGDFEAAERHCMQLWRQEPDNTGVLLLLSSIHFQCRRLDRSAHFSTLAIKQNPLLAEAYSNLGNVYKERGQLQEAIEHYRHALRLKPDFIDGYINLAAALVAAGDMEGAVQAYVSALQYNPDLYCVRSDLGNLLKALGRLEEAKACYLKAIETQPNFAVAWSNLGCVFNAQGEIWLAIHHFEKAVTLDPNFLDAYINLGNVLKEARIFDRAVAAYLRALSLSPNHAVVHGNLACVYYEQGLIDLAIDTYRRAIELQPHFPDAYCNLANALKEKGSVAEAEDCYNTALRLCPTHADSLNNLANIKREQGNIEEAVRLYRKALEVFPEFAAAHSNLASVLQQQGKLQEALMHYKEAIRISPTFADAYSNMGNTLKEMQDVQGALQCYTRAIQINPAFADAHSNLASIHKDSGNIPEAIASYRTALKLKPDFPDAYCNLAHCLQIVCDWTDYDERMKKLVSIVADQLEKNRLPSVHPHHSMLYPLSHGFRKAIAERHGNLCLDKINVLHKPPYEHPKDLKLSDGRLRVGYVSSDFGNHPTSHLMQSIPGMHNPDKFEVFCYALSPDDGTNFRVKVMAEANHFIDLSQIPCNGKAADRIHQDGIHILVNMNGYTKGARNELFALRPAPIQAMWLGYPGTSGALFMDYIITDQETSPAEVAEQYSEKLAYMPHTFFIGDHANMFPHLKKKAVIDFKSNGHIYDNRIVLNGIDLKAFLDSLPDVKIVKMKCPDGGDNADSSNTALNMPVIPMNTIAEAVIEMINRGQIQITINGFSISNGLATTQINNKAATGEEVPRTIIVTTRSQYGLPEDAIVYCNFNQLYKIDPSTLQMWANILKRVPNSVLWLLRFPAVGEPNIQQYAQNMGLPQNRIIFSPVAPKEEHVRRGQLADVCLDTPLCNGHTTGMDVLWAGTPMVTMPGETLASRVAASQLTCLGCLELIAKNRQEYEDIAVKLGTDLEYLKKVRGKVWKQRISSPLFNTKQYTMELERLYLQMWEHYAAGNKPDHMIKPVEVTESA
Molecule,enrichment fold change
TVWPHHSPHHDYDT,7.5
ANYLPMYQMPVTVY,3.23
QWHPTDHHQWRVHDH,10.4

# Sample 5
# Target: PABPC1L2, full length, GST fusion (mouse, UniProt A0ABA7IW68)
# Technique: RNAcompete
# Form: RNA
# Matrix: in vitro
# Tested at: 20 nM
# Setting: 7-mer, probes averaged, single round
# Baseline: mean of 7-mers
# Reading: higher = stronger binding
# Target sequence (chain): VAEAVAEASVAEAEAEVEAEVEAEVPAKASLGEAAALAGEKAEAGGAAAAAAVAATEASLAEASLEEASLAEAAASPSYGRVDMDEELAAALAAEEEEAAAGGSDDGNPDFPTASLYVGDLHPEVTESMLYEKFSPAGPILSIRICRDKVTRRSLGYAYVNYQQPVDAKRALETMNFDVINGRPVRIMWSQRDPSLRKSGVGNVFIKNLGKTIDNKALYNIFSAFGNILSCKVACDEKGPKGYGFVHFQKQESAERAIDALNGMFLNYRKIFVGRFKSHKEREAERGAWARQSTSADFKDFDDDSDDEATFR
Strand,7-mer Z-score
CUCUUUU,-0.00833
AACUAAU,0.046
CAUAGUU,-0.266
AUACAGC,0.22
ACGAUAG,0.0388
UAGAUAC,-0.141
GAUCAGA,-0.00833
UGAGUGA,-0.0627

# Some of these lines once more (sample 3):
Modification,mean fluorescence intensity [a.u.]
2'F-ANA at 2 3 4 8 9 10 11 13 14,165
2'F-ANA at 2 7 8,596
2'F-ANA at 3 4 5 8 14 15,54.7
2'F-ANA at 3 5 6 8 13 14,54.7
2'F-ANA at 1 2 8 13,155
2'F-ANA at 1 2 3 5 8 12 13 15,100
2'F-ANA at 1 3 4 7 8 10 13,56.6
2'F-ANA at 1 2 3 4 5 6 7 9 13,52.1
